Measured values collected from several papers.
A part holds a random share of what one study measured. Positions count from the first letter of the parent shown.

Study 1
Target: Histone acetyltransferase KAT6A, winged helix 1, GST fusion (KAT6A, Homo sapiens, UniProt Q92794, residues 1-85)
Method: protein binding microarray
Form: double-stranded DNA, one strand shown
Sample: in vitro
Concentration: not given
Notes: 8-mer, flanks averaged, mean of 2 arrays, mostly near background
Relative to: not given
Direction: higher = stronger binding
Construct (chain): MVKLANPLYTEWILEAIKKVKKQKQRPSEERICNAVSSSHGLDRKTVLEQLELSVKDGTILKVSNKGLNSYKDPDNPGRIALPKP
| Strand | E-score |
| --- | --- |
| CTACAGAG | -0.186 |
| AACATTCA | -0.102 |
| ATGGGAAC | -0.125 |
| ACAGGCCT | -0.16 |
| GCGCCACA | 0.234 |
| TAACACAA | -0.0442 |
| AGTATTAC | 0.022 |
| AGCCGCCG | 0.466 |
| CAGCTAAA | -0.14 |
| AGCGTCTA | -0.0105 |
| CTGCAGTA | -0.173 |
| ACGTGGAG | -0.154 |
| AGCCATTC | -0.216 |
| AGTAGCCA | -0.17 |
| AACAGGTA | -0.113 |
| AGATGTTG | -0.0826 |
| CATTAGTC | -0.0828 |
| AGAGATAT | -0.246 |
| TAAAATTA | -0.023 |
| CGGATCCC | 0.295 |
| ACGGTCGC | 0.27 |
| CCACTGAC | -0.123 |
| ATTTGCCC | 0.0886 |

Study 2
Target: CCNA2, cyclin fold, Cln2 fusion (human)
Method: yeast growth competition, sequencing
Sample: yeast
Notes: strong parent motif
Relative to: not given
Direction: higher = stronger binding
Starting sequence: CDC25A docking peptide (human); PPHRRRLLFACSP
| Change | normalised enrichment score |
| --- | --- |
| R5W | 1.76 |
| L7H | 0.464 |
| S12Q | 1.91 |
| H3L | 3.37 |
| P2S | 1.33 |
| R4K | 2.59 |
| A10K | 2.52 |
| F9S | 1.32 |
| L7P | 0.964 |
| R5F | 2.14 |
| R4P | 1.59 |
| L7W | 1.66 |
| L8V | 4.05 |
| H3Q | 1.99 |
| P1W | 1.98 |
| L8K | 2.45 |
| R4E | 0.675 |
| R6S | 1.51 |
| C11H | 2.62 |
| A10Q | 3.3 |
| C11V | 2.93 |
| P1V | 1.59 |
| F9A | 1.56 |
| S12D | 2.74 |
| F9P | 0.411 |

Study 3
Target: Interferon regulatory factor 5, full length, phosphomimetic (IRF5, Homo sapiens, UniProt Q13568-2, residues 1-514, S451D/S453D/S456D/S462D)
Method: protein-binding microarray
Form: double-stranded DNA, one strand shown
Sample: in vitro
Concentration: 940 nM top
Notes: 60-bp whole probe
Added: salmon DNA 0.4 mg/ml
Relative to: random background probes
Direction: higher = stronger binding
All sequences stand within: GCCTAGCAC … GTCTTGATTCGCTTGACGCTGCTG
| Strand | fitted relative affinity |
| --- | --- |
| TTAGGTTTCGGTCTCGATTAGTGCTAG | 15.2 z-score |
| GACGGACTGGACTTTCGGGAGGTGCTA | 0.302 z-score |
| CCTCTTCTGGATCTCAGACTGTGCTAG | 0.249 z-score |
| ATAGATATCAGTTTCGATTAGTGCTAG | 8.29 z-score |
| GACGGTATCCTACTGCTGTCGTGCTAG | 0.407 z-score |
| GACGGACTGCTAGTGCTGACGTGCTAG | -0.49 z-score |
| GACGGACTGCTACTGCGGACGTGCTAG | -0.635 z-score |
| GACGGTCTTCTACTGCTGACGTGCTAG | 0.23 z-score |
| TCAATTCTGAAAATGGAACTGTGCTAG | 0.0423 z-score |
| CCTTTTTTGTTGTTTTTTGGGTGCTAG | 2.89 z-score |
| GTCTTTGCAAAAGCTCCACCGTGCTAG | -0.371 z-score |
| TTAGATTTGGGGACTGGATTAGTGCTA | 0.164 z-score |
| TTAGAACTGAGTTTCGATTTGTGCTAG | 6.87 z-score |
| GGGCCAGCAGCCAGGTGGAGGTGCTAG | -0.578 z-score |
| GACGGACTGGGGGTTCGGGACGTGCTA | 0.384 z-score |
| TTGGGACTGCTTCTCCTTTAGTGCTAG | -0.209 z-score |
| TTAAGTCTCCTACTGCTTTAGTGCTAG | 0.367 z-score |
| TCAATTTTAACCCTTATACTGTGCTAG | 0.849 z-score |
| ATAGGTCTCGGTTTCGGTTAGTGCTAG | 9.75 z-score |

Other studies, line by line
| Substance | target | test | system | conditions | scale | quantity | result |
| --- | --- | --- | --- | --- | --- | --- | --- |
| PhoQ, residues 284 288 289 292 302 303 TLSLKA | PhoP, residues 12 14 15 18 19 AQALL (Escherichia coli, UniProt P23836) | Sort-seq, measured: YFP reporter | E. coli | PhoQ-PhoP variant library, added: 10 µM Mg2+ | relative to: high Mg2+ state, higher = stronger signaling | fold induction | 2.15 |

For quick reference, copied from above (study 3):
| Strand | fitted relative affinity |
| --- | --- |
| GACGGACTGCTACTGCGGACGTGCTAG | -0.635 z-score |
| GACGGTCTTCTACTGCTGACGTGCTAG | 0.23 z-score |
| TCAATTCTGAAAATGGAACTGTGCTAG | 0.0423 z-score |
| CCTTTTTTGTTGTTTTTTGGGTGCTAG | 2.89 z-score |
| GTCTTTGCAAAAGCTCCACCGTGCTAG | -0.371 z-score |
| TTAGATTTGGGGACTGGATTAGTGCTA | 0.164 z-score |
| TTAGAACTGAGTTTCGATTTGTGCTAG | 6.87 z-score |
| GGGCCAGCAGCCAGGTGGAGGTGCTAG | -0.578 z-score |
| GACGGACTGGGGGTTCGGGACGTGCTA | 0.384 z-score |
| TTGGGACTGCTTCTCCTTTAGTGCTAG | -0.209 z-score |
| TTAAGTCTCCTACTGCTTTAGTGCTAG | 0.367 z-score |
